Assay results from different studies.
Each line is one published result; not all experiments were run side by side. Several values in a cell are separate wells, animals, samples, runs or records. ± marks the error that the study gave.
U2AF2: U2AF2 148-342 (Homo sapiens, UniProt P26368)
Sequence of UniProt P26368 (whole entry, looked up): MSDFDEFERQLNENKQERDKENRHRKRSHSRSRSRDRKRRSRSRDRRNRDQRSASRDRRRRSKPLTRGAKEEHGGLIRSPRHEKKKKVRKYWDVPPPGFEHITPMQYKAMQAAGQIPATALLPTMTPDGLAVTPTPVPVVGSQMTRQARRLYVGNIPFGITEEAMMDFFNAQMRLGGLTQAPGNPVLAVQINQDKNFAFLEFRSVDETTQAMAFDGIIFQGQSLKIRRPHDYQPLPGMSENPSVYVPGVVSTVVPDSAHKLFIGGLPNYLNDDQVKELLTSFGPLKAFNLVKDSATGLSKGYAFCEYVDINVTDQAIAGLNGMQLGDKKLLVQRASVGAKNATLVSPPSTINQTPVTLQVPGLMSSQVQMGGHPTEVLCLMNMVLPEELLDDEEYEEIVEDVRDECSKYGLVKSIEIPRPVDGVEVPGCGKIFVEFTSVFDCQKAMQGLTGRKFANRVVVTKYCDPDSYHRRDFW
B1: TNFSF4 51-183 (Homo sapiens, UniProt P23510); sequence looked up; chain QVSHRYPRIQSIKVQFTEYKKEKGFILTSQKEDEIMKVQNNSVIINCDGFYLISLKGYFSQEVNISLHYQKDEEPLFQLKKVRSVNSLMVASLTYKDKVYLNVTTDNTSLDDFHVNGGELILIHQNPGEFCVL
B2: P4HB abb'x fragment (Homo sapiens); chain DAPEEEDHVLVLRKSNFAEALAAHKYLLVEFYAPWCGHCKALAPEYAKAAGKLKAEGSEIRLAKVDATEESDLAQQYGVRGYPTIKFFRNGDTASPKEYTAGREADDIVNWLKKRTGPAATTLPDGAAAESLVESSEVAVIGFFKDVESDSAKQFLQAAEAIDDIPFGITSNSDVFSKYQLDKDGVVLFKKFDEGRNNFEGEVTKENLLDFIKHNQLPLVIEFTEQTAPKIFGGEIKTHILLFLPKSVSDYDGKLSNFKTAAESFKGKILFIFIDSDHTDNQRILEFFGLKKEECPAVRLITLEEEMTKYKPESEELTAERITEFCHRFLEGKIKPHLMSQELPEDWDKQP
B3: Flrt3 29-359 (Mus musculus, UniProt Q8BGT1); chain KSCPSVCRCDAGFIYCNDRSLTSIPVGIPEDATTLYLQNNQINNVGIPSDLKNLLKVQRIYLYHNSLDEFPTNLPKYVKELHLQENNIRTITYDSLSKIPYLEELHLDDNSVSAVSIEEGAFRDSNYLRLLFLSRNHLSTIPGGLPRTIEELRLDDNRISTISSPSLHGLTSLKRLVLDGNLLNNHGLGDKVFFNLVNLTELSLVRNSLTAAPVNLPGTSLRKLYLQDNHINRVPPNAFSYLRQLYRLDMSNNNLSNLPQGIFDDLDNITQLILRNNPWYCGCKMKWVRDWLQSLPVKVNVRGLMCQAPEKVRGMAIKDLSAELFDCKDSG
B4: PTGES3 (Homo sapiens, UniProt Q15185); sequence looked up; chain MQPASAKWYDRRDYVFIEFCVEDSKDVNVNFEKSKLTFSCLGGSDNFKHLNEIDLFHCIDPNDSKHKRTDRSILCCLRKGESGQSWPRLTKERAKLNWLSVDFNNWKDWEDDSDEDMSNFDRFSEMMNNMGGDEDVDLPEVDGADDDSQDSDDEKMPDLE
B5: RSPO4 32-137 Q65R (Homo sapiens, UniProt Q2I0M5); chain GGNCTGCIICSEENGCSTCQQRLFLFIRREGIRRYGKCLHDCPPGYFGIRGQEVNRCKKCGATCESCFSQDFCIRCKRQFYLYKGKCLPTCPPGTLAHQNTRECQGGGGGSGGGGSGGGGS
B6: VCL 1-252 (Homo sapiens, UniProt P18206); sequence looked up; chain MPVFHTRTIESILEPVAQQISHLVIMHEEGEVDGKAIPDLTAPVAAVQAAVSNLVRVGKETVQTTEDQILKRDMPPAFIKVENACTKLVQAAQMLQSDPYSVPARDYLIDGSRGILSGTSDLLLTFDEAEVRKIIRVCKGILEYLTVAEVVETMEDLVTYTKNLGPGMTKMAKMIDERQQELTHQEHRVMLVNSMNTVKELLPVLISAMKIFVTTKNSKNQGIEEALKNRNFTVEKMSAEINEIIRVLQLTS
B7: FOLR3 (Homo sapiens, UniProt P41439); sequence looked up; chain QPRSARARTDLLNVCMNAKHHKTQPSPEDELYGQCSPWKKNACCTASTSQELHKDTSRLYNFNWDHCGKMEPTCKRHFIQDSCLYECSPNLGPWIRQVNQSWRKERILNVPLCKEDCERWWEDCRTSYTCKSNWHKGWNWTSGINECPAGALCSTFESYFPTPAALCEGLWSHSFKVSNYSRGSGRCIQMWFDSAQGNPNEEVAKFYAAAMNAGAPSRGIIDS
B8: EFR3A 721-791 (Homo sapiens, UniProt Q14156); chain SNTEEITFEALKKAIDTSGMEEQEKEKRRLVIEKFQKAPFEEIAAQCESKANLLHDRLAQILELTIRPPPS
B9: ATG9 1-255 (Saccharomyces cerevisiae, UniProt Q12142); sequence looked up; chain MERDEYQLPNSHGKNTFLSRIFGLQSDEVNPSLNSQEMSNFPLPDIERGSSLLHSTNDSREDVDENDLRVPESDQGTSTEEEDEVDEEQVQAYAPQISDGLDGDHQLNSVTSKENVLETEKSNLERLVEGSTDDSVPKVGQLSSEEEEDNEFINNDGFDDDTPLFQKSKIHEFSSKKSNTIEDGKRPLFFRHILQNNRPQRDTQKLFTSSNAIHHDKDKSANNGPRNINGNQKHGTKYFGSATQPRFTGSPLNNT
B10: SMARCD1 SWIFT domain (Homo sapiens); chain IKQKRKLRIFISNTFNPAKSDAEDGEGTVASWELRVEGRLLEDSALSKYDATKQKRKFSSFFKSLVIELDKDLYGPDNHLVEWHRTATTQETDGFQVKRPGDVNVRCTVLLMLDYQPPQFMPPEPIIINHVISVDPNDQKKTACYDIDVEVDDTL
B11: SRS2 1107-1174 I1152A (Saccharomyces cerevisiae, UniProt P12954); N-terminal cysteine BODIPY-FL; chain CHNPDDTTVDNRPIISNAKFLADAAMKKTQKFSKKVKNEPASSQMDAFSQLSRAKKKSKLNNGEIIVID
B12: IL18 37-193 C74S/S101C/C104S/T109C/C112S/C163S (Homo sapiens, UniProt Q14116); chain YFGKLESKLSVIRNLNDQVLFIDQGNRPLFEDMTDSDSRDNAPRTIFIISMYKDSQPRGMAVTICVKSEKISCLSSENKIISFKEMNPPDNIKDTKSDIIFFQRSVPGHDNKMQFESSSYEGYFLASEKERDLFKLILKKEDELGDRSIMFTVQNED
Sequence of UniProt P26231 (whole entry, looked up): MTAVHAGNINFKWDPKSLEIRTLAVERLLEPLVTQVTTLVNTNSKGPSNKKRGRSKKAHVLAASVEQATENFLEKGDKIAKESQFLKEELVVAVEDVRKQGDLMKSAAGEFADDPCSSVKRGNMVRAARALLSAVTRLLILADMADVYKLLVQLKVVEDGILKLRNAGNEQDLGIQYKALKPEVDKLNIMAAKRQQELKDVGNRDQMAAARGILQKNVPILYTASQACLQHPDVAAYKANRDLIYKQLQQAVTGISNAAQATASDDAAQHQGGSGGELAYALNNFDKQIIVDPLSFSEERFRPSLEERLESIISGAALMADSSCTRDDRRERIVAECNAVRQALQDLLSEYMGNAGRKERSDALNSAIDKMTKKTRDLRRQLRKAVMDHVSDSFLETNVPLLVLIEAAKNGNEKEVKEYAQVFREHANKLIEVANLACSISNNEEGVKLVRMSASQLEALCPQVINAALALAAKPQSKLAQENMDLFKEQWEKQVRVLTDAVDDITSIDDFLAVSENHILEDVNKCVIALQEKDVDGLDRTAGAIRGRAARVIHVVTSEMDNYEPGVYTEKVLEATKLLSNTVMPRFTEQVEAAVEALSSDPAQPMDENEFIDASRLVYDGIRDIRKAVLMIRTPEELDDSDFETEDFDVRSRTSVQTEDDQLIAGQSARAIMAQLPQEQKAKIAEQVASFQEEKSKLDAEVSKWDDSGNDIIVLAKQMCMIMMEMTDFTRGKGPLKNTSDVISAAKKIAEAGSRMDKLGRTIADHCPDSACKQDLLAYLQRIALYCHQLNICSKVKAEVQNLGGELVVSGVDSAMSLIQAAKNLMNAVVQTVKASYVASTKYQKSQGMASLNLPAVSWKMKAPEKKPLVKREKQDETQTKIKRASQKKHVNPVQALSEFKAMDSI
Sequence of UniProt Q23985 (whole entry, looked up): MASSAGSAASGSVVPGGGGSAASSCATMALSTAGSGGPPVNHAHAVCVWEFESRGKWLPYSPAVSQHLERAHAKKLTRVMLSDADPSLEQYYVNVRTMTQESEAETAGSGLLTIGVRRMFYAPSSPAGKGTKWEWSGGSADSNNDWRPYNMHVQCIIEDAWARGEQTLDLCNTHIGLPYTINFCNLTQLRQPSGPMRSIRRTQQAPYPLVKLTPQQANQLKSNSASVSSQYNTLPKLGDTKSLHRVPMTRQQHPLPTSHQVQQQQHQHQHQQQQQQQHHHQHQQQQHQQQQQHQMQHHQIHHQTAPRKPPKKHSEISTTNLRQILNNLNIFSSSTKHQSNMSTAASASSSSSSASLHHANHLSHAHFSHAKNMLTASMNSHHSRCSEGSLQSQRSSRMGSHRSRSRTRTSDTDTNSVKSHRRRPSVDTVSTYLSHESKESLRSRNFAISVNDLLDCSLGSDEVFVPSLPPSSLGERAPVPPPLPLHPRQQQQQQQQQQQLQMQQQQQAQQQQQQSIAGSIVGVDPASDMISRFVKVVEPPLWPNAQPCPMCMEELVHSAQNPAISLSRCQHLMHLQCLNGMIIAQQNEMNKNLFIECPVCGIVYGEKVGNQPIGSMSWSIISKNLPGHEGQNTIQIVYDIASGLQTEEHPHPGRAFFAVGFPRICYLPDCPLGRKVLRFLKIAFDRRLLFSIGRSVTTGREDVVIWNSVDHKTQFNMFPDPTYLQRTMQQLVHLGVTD
Sequence of UniProt Q9WV60 (whole entry, looked up): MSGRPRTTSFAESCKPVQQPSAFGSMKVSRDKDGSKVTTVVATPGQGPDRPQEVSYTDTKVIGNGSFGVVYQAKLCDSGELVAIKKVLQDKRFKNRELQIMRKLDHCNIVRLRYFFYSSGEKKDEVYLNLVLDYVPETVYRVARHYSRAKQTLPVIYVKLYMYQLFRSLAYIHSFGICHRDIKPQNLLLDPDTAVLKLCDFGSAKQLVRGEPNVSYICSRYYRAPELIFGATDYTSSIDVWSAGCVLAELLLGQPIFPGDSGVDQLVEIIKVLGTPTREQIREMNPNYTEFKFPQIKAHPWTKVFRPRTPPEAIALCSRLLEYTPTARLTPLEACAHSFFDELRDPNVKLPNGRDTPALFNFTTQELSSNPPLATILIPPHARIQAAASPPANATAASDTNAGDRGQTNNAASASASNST
Sequence of UniProt Q8IZJ1 (whole entry, looked up): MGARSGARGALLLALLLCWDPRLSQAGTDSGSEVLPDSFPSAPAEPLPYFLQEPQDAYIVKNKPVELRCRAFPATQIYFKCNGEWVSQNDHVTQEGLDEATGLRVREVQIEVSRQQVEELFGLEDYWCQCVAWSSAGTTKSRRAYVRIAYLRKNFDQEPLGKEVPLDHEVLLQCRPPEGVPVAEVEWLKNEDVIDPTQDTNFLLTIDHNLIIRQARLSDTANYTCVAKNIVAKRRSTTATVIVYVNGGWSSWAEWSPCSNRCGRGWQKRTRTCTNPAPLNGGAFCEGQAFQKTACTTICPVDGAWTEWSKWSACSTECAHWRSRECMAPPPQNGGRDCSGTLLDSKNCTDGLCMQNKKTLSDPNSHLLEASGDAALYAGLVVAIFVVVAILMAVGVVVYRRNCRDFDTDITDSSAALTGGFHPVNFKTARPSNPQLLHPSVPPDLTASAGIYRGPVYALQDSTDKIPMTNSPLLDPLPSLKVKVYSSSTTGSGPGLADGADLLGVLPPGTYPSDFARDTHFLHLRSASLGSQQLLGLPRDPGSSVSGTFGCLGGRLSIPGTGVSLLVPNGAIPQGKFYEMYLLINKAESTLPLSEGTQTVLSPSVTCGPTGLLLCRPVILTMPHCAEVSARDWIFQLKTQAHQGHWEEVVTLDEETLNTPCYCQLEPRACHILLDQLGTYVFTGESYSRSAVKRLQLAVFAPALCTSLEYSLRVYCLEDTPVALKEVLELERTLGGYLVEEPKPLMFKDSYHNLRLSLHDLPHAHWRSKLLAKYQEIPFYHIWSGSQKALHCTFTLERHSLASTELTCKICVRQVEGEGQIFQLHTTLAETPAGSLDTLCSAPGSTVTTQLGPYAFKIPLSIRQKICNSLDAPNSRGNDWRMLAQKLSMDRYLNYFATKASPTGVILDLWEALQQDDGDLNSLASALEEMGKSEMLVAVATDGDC
Sequence of UniProt Q00535 (whole entry, looked up): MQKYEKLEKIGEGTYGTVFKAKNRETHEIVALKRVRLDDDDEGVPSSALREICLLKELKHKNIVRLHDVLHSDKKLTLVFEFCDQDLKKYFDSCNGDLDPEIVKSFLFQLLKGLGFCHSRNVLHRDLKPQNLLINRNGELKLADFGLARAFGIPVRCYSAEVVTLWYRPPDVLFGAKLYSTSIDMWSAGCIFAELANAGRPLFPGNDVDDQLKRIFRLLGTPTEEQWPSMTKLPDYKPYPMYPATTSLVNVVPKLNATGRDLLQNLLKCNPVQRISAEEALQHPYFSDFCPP
Sequence of UniProt Q92743 (whole entry, looked up): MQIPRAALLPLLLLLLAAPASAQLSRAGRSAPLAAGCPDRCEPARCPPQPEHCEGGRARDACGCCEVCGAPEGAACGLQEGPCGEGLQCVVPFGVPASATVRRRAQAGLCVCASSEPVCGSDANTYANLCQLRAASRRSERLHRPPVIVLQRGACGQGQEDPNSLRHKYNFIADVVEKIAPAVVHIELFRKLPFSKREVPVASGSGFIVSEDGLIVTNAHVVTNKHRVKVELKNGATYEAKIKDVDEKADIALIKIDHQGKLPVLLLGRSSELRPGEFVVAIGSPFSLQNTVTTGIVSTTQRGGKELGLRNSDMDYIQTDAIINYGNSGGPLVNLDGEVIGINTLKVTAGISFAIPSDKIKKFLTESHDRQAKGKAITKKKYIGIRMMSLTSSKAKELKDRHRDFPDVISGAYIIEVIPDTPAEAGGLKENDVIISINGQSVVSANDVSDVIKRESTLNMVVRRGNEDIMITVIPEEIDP

UBE2D2 (Homo sapiens, UniProt P62837) — Kd (NEDD4 HECT domain, Cy5 N-terminus (Homo sapiens); MST; together with: Ub 100 µM): 266000 ± 118000 nM
GUUCUGUGU (ssRNA) — Kd (U2AF2; sequencing of bound RNA; RNA; motif only): 5600 nM
GCVRLHESCLGQQVPCCDPAATCYCVGRGDDNLKCYCR (designed peptide AgRP scaffold) — Kd (ITGA2B/ITGB3 K562 cells; flow cytometry; designed binder, U87MG): > 100 nM
B1 (TNFSF4 51-183) — Kd (TNFRSF4 29-170 D124A (Homo sapiens, UniProt P43489); SPR): 72000 nM
GUUCUUUUU (ssRNA) — Kd (U2AF2; sequencing of bound RNA; RNA; motif only): 3030 nM
B2 (P4HB abb'x fragment) — Kd (ITGA2B/ITGB3 complex (Homo sapiens); SPR): 59 nM and 82 nM
KLLITIHDRKEFAKFEEERARAKWDTANNPLYKEATSTFTNITYRGT (ITGB3 742-788 (Homo sapiens, UniProt P05106); sequence looked up) — Kd (Tln2 312-408 (Mus musculus, UniProt Q71LX4); NMR titration): 438000 nM
B3 (Flrt3 29-359) — Kd (UNC5B 27-375 (Homo sapiens, UniProt Q8IZJ1); SPR): 15000 nM
PF4/KKO tetramer — Kd (GP6 monomer (UniProt Q9HCN6); SPR): 30 nM
VEPQKFAEELIHRLEAVQRT (AXIN1 383-402 (Homo sapiens, UniProt O15169-2); N-terminal HiLyte488; sequence looked up) — Kd (Gsk3b 26-383 (Mus musculus, UniProt Q9WV60); fluorescence polarisation; peptide): 720 nM
human filamin B — log2 fold change (CYB5R4 knockout human cells; PP4 interaction, 3xFLAG-PP4C IP-MS; concentration not given; relative to: CYB5R4 KO over parental): 0.22
B4 (PTGES3) — Kd (HSP90AB1 AMPPNP-bound (Homo sapiens, UniProt P08238); BLI; 26 °C): 1330 nM
MBL-A mature, hydroxylysine, hydroxyproline in collagen (Rattus norvegicus, UniProt P19999) — Kd (C1R (Homo sapiens, UniProt P00736); SPR; together with: CaCl2 140 mM): 274 nM
B5 (RSPO4 32-137 Q65R) — Kd (LGR5 (Homo sapiens, UniProt O75473); whole-cell binding saturation; Fc fusion, HEK293T): 0.7 nM
WASHC2A (Homo sapiens, UniProt Q641Q2) — Kd (SNX27 (Homo sapiens, UniProt Q96L92-3); ITC): 5700 ± 1940 nM
HEKHH (HTN1 residues 15-19) — Kd (TMEM97 (Homo sapiens, UniProt Q5BJF2); SPR; peptide): 42000 nM
B6 (VCL 1-252) — Kd (Ctnna1 (Mus musculus, UniProt P26231); BLI): 1700 nM and 1800 nM
B7 (FOLR3) — Kd (HTRA1 (Homo sapiens, UniProt Q92743); BLI; simple kinetic fit): 530 nM
B8 (EFR3A 721-791) — Kd (TTC7A/FAM126B 1-308; BLI): 0.473 nM
CDH23 EC1-2 (Anolis carolinensis) — Kd (PCDH15 EC1-2 (Anolis carolinensis); SPR): 2300 ± 1000 nM
B9 (ATG9 1-255) — Kd (ATG23 A34E (Saccharomyces cerevisiae, UniProt Q06671); BLI): 7400 nM
B10 (SMARCD1 SWIFT domain) — Kd (SPI1, NHS Red dye labeled (Homo sapiens, UniProt P17947); MST): 6780 ± 2950 nM
B11 (SRS2 1107-1174 I1152A) — Kd (POL30 1-258 K127G (Saccharomyces cerevisiae, UniProt P15873); fluorescence polarisation; apparent): 10200 nM
KEAFWDRCLSVINIMSSKMLQINA — activity change (Cyclin-dependent kinase 5, with p25 (CDK5, Homo sapiens, UniProt Q00535); phosphotransferase activity, radiometric; peptide; concentration not given, 10% DMSO, together with: histone substrate; relative to: p5-WT peptide): 18%
Notch ankyrin domain K183A/R193A/E194A/R107A (Drosophila) — Kd (dx (Drosophila melanogaster, UniProt Q23985); AUC): 5130 nM
SQELHKLQTYPRTNTGSGTP (salmon calcitonin 13-32, N-terminal FITC-Ahx/C-terminal amide (Salmo salar); N-terminal FITC-Ahx/C-terminal amide) — Kd (RAMP2/CALCR extracellular domain 55-140 (Homo sapiens); fluorescence polarization; peptide): 1700 nM
B12 — Kd (IL18BP (Homo sapiens, UniProt O95998); SPR): 0.011 nM
Tropomyosin alpha-3 chain (human) — log2 fold change (PP6C (human); co-immunoprecipitation, IP-MS; CYB5R4 knockout cells; concentration not given; relative to: CYB5R4 knockout over parental): 0.53

For quick reference, copied from above:
GCVRLHESCLGQQVPCCDPAATCYCVGRGDDNLKCYCR (designed peptide AgRP scaffold) — Kd (ITGA2B/ITGB3 K562 cells; flow cytometry; designed binder, U87MG): > 100 nM
B3 (Flrt3 29-359) — Kd (UNC5B 27-375 (Homo sapiens, UniProt Q8IZJ1); SPR): 15000 nM
